Results gathered from unrelated publications.
Every numbered part comes from another study and shows a few of its results, in no order.

Sample 1 — technique: aptamer microarray, sandwich; molecule type: DNA with 2'F-ANA; matrix: in vitro; tested at: 200 nM; with: Cy3 exosite-II aptamer, 400 nM; reading: higher = stronger binding; oligonucleotide: GGTTGGTGTGGTTGG
Target: Prothrombin, mature alpha-thrombin (F2, Homo sapiens, UniProt P00734)
Setting: whole 15-mer aptamer, many near background
Modification	mean fluorescence intensity
2'F-ANA at 2 3 4 5 6 8 9 11 12 13	100 a.u.
2'F-ANA at 1 2 4 5 6 7 8 10 13 14	64.5 a.u.
2'F-ANA at 2 3 4 7 14 15	365 a.u.
2'F-ANA at 6	578 a.u.
2'F-ANA at 1 2 4 5 6 7 9 10 12 14 15	53.8 a.u.
2'F-ANA at 2 4 5 8 10 11 14	79.2 a.u.
2'F-ANA at 3 5 9 10 13	64.6 a.u.

Sample 2 — technique: RNA Bind-n-Seq; molecule type: RNA; matrix: in vitro; tested at: 365 nM; relative to: no-protein control; reading: higher = stronger binding
Target: RNA binding protein fox-1 homolog 2, RRM domain, GST-SBP tag (RBFOX2, Homo sapiens, UniProt O43251-10, residues 100-194)
Setting: natural RNA segment, single round, ends assumed
Shared flanks, not repeated: GGGAGUUCUACAGUCCGACGAUC … UGGAAUUCUCGGGUGCCAA
Construct (chain): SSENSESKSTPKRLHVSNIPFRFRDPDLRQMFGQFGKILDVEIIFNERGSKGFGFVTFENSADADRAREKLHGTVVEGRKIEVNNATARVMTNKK
Oligonucleotide	RBNS enrichment (R)
AAGGCCUGUUCCCUGGAAGCCCAAAGGACUCUGCAUUGAGGGUGGGGGUAAUUGUCUCUUGGUGGGCCCAGUUAGUGGGCCUUCCUGAGUGUGUGUAUGCGGUCUGUAAC	1.65
GGACUCUAUUGUUCCCUCUUGUAUAGGCACUUUACAUUUCUUGUCACUACAGCAACCACAUACAGUACAGACAACCUCCAAACCUGUUUAUAUUAGUGUAAAUAGAAAAU	0.414
CACUUUGACCCUCUGGCUAAGCCCUGGGAGUCCCUGACAGGUCCAGAAACUUCUCUGACACCCAUUCACCAGGGUGCUGAGAUAGGAGAAAGUGCUCAUUUAUAAUGUGU	0.247
UGCUGCCUGGAGAACUGAGAAUAGACCUCUGUUGUUGACCCUUCCUCAGGCUGGAGCCUGGGUGUUGGAAGGGAGAGACUGUCACCCAGUUGUCAUGUCUUUUGGUUGUG	0.718
UCUGUAGCCCUAACACAUGGGAUGAACGUUUUACUGCUACACCCAGAUUUGUGUUGAACGAAAACAUUGUGGUUUGGAAAGGAGAAUUCAACAAUUAAUAGUUGAAAUUG	0.411
CUCUGCUUUACCUUCUUAAGCCACCUAAUUGUUGGCCCCACUACGGGUAGCCAGAGGCUUUGAGCCUCAUUUCCUUGCUCUGACUUCAAUAAAGACUUUUCAAUCAAACC	0.271
ACCAAACAGGCCUCUCGCUCACUCCUCCCAGCCCAGUAAUGCUGAGGAGUUCAGUUGUGAGGAAAGAAGGCUGGAGCUGUGAGAUUCGCUUUUCCCUAGGCUGUUCCGCG	0.354
CCUACCCGAUUGGUCCCGGCCUCCUGGGAGUGUGGCCAAGCCCUCCCUAACCCAGAAUUGGCCCGAGGCCUUUAAUUUCUUACACUACUAGGGCUGUUAAUCAAUUGUUU	0.412

Sample 3 — technique: universal PBM; molecule type: double-stranded DNA, one strand shown; matrix: in vitro; tested at: not given; reading: higher = stronger binding
Target: Sal-like protein 4, full length isoform B (SALL4, Homo sapiens, UniProt Q9UJQ4-2, residues 1-616)
Setting: 8-mer, flanks averaged, mean of replicates
Oligonucleotide	E-score
CTTGCATC	-0.139
ATTAAACC	0.218
AACCATAA	0.343
CCGACTCC	-0.316
GTTTGGTA	0.23
AACTCTTG	-0.0216
GGCTTCAC	-0.034

Single results of other studies
Substance	target	test	system	setting	how to read	endpoint	value
PhoQ, residues 284 288 289 292 302 303 GNNTDL	PhoP, residues 12 14 15 18 19 VQGLL (Escherichia coli, UniProt P23836)	Sort-seq, measured: YFP reporter	E. coli	PhoQ-PhoP variant library, with: 10 µM Mg2+	relative to: high Mg2+ state, higher = stronger signaling	fold induction	0.994
